Measured values pooled from the literature.
Lines come from different studies, so protocols differ. Numbers after ± are the reported error.
Sodium channel protein type 4 alpha BTX-activated: Sodium channel protein type 4 alpha, BTX-activated (Oryctolagus cuniculus, UniProt G1SLL9)
Chain of UniProt P18177 (whole entry, looked up): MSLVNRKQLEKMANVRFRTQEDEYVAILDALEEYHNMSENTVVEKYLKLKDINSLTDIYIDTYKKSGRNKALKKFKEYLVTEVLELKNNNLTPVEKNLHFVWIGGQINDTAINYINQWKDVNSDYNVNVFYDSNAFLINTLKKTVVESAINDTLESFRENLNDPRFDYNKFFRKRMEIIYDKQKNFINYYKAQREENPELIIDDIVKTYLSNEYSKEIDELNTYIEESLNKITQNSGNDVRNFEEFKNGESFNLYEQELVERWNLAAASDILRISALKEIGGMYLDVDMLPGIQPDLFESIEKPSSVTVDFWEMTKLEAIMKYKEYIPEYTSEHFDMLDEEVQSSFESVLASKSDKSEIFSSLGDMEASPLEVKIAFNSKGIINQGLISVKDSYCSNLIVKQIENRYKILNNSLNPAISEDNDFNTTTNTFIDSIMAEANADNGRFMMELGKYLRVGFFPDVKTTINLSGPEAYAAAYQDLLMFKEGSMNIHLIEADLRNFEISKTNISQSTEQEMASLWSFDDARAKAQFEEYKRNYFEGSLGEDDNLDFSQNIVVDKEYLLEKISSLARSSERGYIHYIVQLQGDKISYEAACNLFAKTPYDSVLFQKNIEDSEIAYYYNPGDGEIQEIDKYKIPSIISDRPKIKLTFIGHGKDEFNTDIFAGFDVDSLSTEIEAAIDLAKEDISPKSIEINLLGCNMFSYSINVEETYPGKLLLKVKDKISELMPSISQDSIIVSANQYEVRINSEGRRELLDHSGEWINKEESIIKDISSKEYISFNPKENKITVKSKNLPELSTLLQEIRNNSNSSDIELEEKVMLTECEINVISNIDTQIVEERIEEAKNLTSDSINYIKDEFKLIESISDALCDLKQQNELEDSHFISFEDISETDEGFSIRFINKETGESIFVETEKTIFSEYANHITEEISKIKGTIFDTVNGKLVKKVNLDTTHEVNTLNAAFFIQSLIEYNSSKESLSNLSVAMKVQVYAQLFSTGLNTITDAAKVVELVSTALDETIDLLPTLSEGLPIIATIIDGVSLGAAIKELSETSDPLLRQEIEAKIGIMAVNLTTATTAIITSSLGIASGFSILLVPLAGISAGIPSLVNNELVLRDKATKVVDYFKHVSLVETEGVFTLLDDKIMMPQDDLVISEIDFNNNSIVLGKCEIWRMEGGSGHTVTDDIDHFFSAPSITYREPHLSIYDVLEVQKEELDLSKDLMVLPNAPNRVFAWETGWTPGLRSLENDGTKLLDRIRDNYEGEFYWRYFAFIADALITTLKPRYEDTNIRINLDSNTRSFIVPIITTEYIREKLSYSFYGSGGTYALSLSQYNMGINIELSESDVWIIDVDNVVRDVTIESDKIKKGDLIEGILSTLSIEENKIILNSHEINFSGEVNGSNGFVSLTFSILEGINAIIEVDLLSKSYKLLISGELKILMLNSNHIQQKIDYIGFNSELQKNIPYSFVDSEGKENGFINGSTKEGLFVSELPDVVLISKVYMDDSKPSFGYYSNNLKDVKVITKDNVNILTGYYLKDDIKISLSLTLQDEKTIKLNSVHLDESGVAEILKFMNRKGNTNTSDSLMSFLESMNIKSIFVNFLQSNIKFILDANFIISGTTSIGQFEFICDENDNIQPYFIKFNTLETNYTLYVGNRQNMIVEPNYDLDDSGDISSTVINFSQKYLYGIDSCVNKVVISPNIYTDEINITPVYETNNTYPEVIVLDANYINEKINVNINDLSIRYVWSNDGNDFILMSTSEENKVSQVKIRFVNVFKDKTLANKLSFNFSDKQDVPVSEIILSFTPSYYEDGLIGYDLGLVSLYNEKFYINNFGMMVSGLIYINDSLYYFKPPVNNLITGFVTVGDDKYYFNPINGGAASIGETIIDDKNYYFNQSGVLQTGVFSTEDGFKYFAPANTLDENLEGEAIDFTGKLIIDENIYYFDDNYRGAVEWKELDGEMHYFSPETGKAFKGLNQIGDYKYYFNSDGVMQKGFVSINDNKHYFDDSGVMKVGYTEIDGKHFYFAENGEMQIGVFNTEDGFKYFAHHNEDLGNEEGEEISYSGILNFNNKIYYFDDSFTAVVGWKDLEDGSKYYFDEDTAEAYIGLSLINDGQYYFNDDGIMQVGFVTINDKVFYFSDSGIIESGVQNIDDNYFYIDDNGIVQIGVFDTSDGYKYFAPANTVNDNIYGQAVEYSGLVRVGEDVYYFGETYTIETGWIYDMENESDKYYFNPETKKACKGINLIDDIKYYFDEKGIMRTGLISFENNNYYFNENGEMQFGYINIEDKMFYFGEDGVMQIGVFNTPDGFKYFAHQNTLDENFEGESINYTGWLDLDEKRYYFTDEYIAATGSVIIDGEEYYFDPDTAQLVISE

The k-1 of `CCCCCCCCCCCCCCCCCC[N+](C)(C)C.[Br-]` is reported as 5 s⁻¹ (Sodium channel protein type 4 alpha BTX-activated; concentration not given, 0 mV).
For `NC(=O)c1nc(F)c[nH]c1=O`, the EC50 was 77.3 ± 13.3 µM (Lassa virus; HeLa, clade III Nigeria-231).
`CC(C)[C@H]1C(=O)O[C@H](C(C)C)C(=O)N(C)[C@@H](C(C)C)C(=O)O[C@H](C(C)C)C(=O)N(C)[C@@H](C(C)C)C(=O)O[C@H](C(C)C)C(=O)N1C` has a tissue concentration of 0.1 µg/kg (LC-MS/MS; CB-17 scid/scid mice, kidney; intraperitoneal, 5 mg/kg, 24 h after last dose, daily dosing).
For `O=P(O)(O)OC1C(OP(=O)(O)O)C(OP(=O)(O)O)C(OP(=O)(O)O)C(OP(=O)(O)O)C1OP(=O)(O)O` (stereo not drawn), the EC50 was 4.7 ± 0.9 µM (Toxin B (tcdB, Clostridioides difficile, UniProt P18177); autoprocessing, activator, SDS-PAGE densitometry; 10463; 1 h).
For `CSCC[C@H](NC(=O)[C@H](CC(C)C)NC(=O)[C@H](C)N)C(=O)N[C@@H](CC(C)C)C(=O)N[C@@H](CCCNC(=N)N)C(=O)N[C@@H](CC(C)C)C(=O)N[C@@H](CC(C)C)C(=O)N[C@@H](CCCNC(=N)N)C(=O)N[C@H](C(=O)O)[C@@H](C)O`, “IFN-γ+ CD8+ T cells” read 0.5% (epitope-specific T-cell response, intracellular cytokine staining; PBMC, human; dose not given).
For `CC(C)CC1(C)NC(=O)N(Cc2cc([N+](=O)[O-])cc3c2OCOC3)C1=O` (stereo not drawn), the inhibition was 40% (MERS-CoV spike VSV pseudovirus; pseudovirus entry; 10 µM).
The EC50 of `O=c1ccn([C@@H]2O[C@](F)(CO)[C@@H](O)[C@H]2O)c(=O)[nH]1` is reported as 2.03 µM (Mammarenavirus lassaense; viral replication; HeLa, clade I).
The EC50 of `NC(=O)c1ncn([C@@H]2O[C@H](CO)[C@@H](O)[C@H]2O)n1` is reported as 2.31 ± 0.33 µM (Lassa virus; HeLa, clade II Nigeria-322).
`CCCCCCCCCCCC[N+](C)(C)C.[Cl-]` has a k-1 of 19.3 s⁻¹ (Sodium channel protein type 4 alpha BTX-activated; concentration not given, 0 mV).

Some of these lines once more:
For `CC(C)CC1(C)NC(=O)N(Cc2cc([N+](=O)[O-])cc3c2OCOC3)C1=O` (stereo not drawn), the inhibition was 40% (MERS-CoV spike VSV pseudovirus; pseudovirus entry; 10 µM).
